Results from different studies.
Numbered parts are unrelated; each lists some results of a single study. Substitutions count along the parent as printed.

Series 1
Target: RING finger protein unkempt homolog, zinc fingers 1-6, GST-SBP tag (UNK, Homo sapiens, UniProt Q9C0B0, residues 30-357)
Method: RNA Bind-n-Seq
Form: RNA
Sample: in vitro
Concentration: not given
Notes: RNA with constant flanks, human-mouse chimeric sites, ends assumed
Baseline: input RNA pool
Direction: higher = stronger binding
Construct (chain): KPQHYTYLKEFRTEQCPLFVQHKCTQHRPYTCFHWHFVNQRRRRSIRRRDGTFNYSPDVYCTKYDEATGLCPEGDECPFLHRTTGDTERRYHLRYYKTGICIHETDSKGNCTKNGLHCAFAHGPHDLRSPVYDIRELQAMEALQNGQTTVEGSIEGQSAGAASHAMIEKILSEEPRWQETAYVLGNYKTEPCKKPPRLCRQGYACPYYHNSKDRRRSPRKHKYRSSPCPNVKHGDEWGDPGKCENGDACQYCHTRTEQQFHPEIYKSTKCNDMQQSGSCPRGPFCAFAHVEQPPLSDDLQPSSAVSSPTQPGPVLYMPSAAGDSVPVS
Sequence | bound/input enrichment
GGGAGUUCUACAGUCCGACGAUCGAUCAUGGAACCAGAAUAGAAAUGAAGAUGAGAUUACCCAGACGAGCCCAAAACCGCGCGCUACAGAAAAGUAAACUUAACCUUGCAGAGUUCCUUAAUGAAGAUACAAGUUAAGAGAGCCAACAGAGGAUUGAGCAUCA | 0.431 ratio
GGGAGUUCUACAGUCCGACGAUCACAGUUAUAUUGUUGAGUUUCAUUUUCAUAUAUUCUUGUAGUGUCUGCUUGCCUGUGACUUCUGGUAAAAUAAGACUAGCCUUUGAAAAUAUUUUAGCAUGGUAUUUAACAUUUUCUAAACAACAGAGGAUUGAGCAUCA | 10.6 ratio
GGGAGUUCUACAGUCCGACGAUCAAAGUGAUGACUAUGUUUGUCCAACGACAGGUAUUUUCGGAGAGCAAAGAUGAGAUUGCUUUAGUCCUCUAUGGCACAGAUGGCACUGAUAAUGCCCUUGCUGGCAAGGAUCAGUAUCAGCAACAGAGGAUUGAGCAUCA | 0.228 ratio
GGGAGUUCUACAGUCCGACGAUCUACUACUAUGAUGGUGAUAUUGGCAAUUAUUAUUAUGGCCAGGGUCAUCCCAUGAAGCCUCAUAGAAUCCGGAUGACCCAUAACUUGCUGCUAAAUUAUGGUUUAUACAGAAAAAUGGAACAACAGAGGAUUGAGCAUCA | 0.22 ratio
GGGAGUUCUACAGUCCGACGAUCUACUACUAUGAUGGUGAUAUUGGCAAUUAUUAUUAUGGACAGGGUCAUCCCAUGAAGCCUCAUAGAAUCCGGAUGACUCAUAACUUGCUGCUAAAUUAUGGCUUAUACCGAAAAAUGGAACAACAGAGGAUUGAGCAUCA | 0.36 ratio
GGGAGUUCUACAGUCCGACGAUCCGCGUCCUCUCGCUGCUGCGGAGCCCGAGCUGGGAACCAUUCCGGGACUGGUACCCUGCACACAGCCGCCUCUUCGAUCAAGCUUUCGGGGUGCCCCGGUUGCCCGAUGAGUGGUCGCAGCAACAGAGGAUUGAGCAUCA | 0.113 ratio
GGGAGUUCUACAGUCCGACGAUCACCUCCCAGGCCUGGGACACCCCACCCCCGCUUUUUGGAAAGUUUUUGGCGUUUCUUUUCCUUCCCCAUACAAAGUGAUUACAGUUUAGAGUCUAUGGGUCUAUCGAAGGGCUUGACGGACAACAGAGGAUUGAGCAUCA | 0.629 ratio
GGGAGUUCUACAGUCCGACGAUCUCCCAAAUCCAGCAGCUCCUUGAAAUAAAUUGUUUGUCACUCCACACACAGGGAAGGCGAUAACAUUGUACAUUGGUUUACAUUUUUUCCCCCUGUGGAUUUUUCUAGAGGUCAUAGUGCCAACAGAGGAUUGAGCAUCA | 0.529 ratio
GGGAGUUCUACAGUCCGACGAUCCGCCUGGAUGAGGCGGGUGUCACAGAUGAAGUGCUAGAUUCUGCCAUGCAAGCCUUCCUUCUGGAGGUUAUCGUUAAACAUGGGGAGCCGGCACCUUAUUUAUGUAACAAAGAUCCGUUUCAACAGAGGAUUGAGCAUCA | 0.0668 ratio
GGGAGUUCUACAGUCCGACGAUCGUGCCCUUCUCGCUGCUGCGGAGCCCGAGCUGGGAACCAUUCCGGGACGACUGGUACGCACACAGCCGCCUCUUCGAUCAAGCUUUCGGGCUGCCCCGGUUGCCCGAUGAGUGGUCGCAGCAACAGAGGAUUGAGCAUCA | 0.0712 ratio
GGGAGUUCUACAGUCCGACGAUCUGUAGUUGAUCCCCUGCUCAUUUUUCUCUUUUCUUUCAGAUCGUCAGGAAAAGCCUAAAGAUUAGGUUGUAAGAAAAACAGAAGCCAUGUUUCGAAGACCUGUGUUACAGGUAUUUCGUCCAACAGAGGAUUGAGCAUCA | 0.163 ratio

Series 2
Target: RNA binding protein fox-1 homolog 2, RRM domain, GST-SBP tag (RBFOX2, Homo sapiens, UniProt O43251-10, residues 100-194)
Method: RNA Bind-n-Seq
Form: RNA
Sample: in vitro
Concentration: 365 nM
Notes: natural RNA segment, single round, ends assumed
Baseline: no-protein control
Direction: higher = stronger binding
Target sequence (chain): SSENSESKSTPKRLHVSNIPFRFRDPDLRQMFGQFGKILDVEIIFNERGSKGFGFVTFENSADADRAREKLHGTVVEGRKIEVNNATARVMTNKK
Sequence | RBNS enrichment (R)
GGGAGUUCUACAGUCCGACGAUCCAAAAGGAAAAAAAAAAUCCCAAUCCUCAAAAGGUCAAGGCCCCGUCCCCUGUUGUCGGUGAUUUGUUUGUCUUUCUGAUAGGUUGAAAAUUGUGUAAUAAACUUGAUGAUGGAAUUCUCGGGUGCCAA | 0.661
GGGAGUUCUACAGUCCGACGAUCCCUCAGGUCCCAACUGAAUGUCUGCCAACCCCUGCUCAGGACACUCUUCUUUCCUGGGGCAAGCCAGGAGCUCUCAACAGAGGGAGGACUGGAGGGCAGAUGGAGAAAGCUGGAAUUCUCGGGUGCCAA | 0.493
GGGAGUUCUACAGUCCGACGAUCCAAACACGGGCAUCCCGGGGAAAGCUGGGAGUUUGGUUCCUGGCACAUUGCAAUCACUUGAUUGUGAGUCCUUGGGAGCAAAUGCCUGAUGCUGUAUUUUCACAACUCUGUGGAAUUCUCGGGUGCCAA | 0.224
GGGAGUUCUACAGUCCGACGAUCGCCCUGAUGCGGUAGAGGGGCAUCCUCUGGCCUUUGUGAGCUGUAGGGAUGCAGAGUCUGAUGCCAGCGUCUUGCUGGGGGAGUGGCCUAGAAGGGGAUCCUAACAGGGAUGGAAUUCUCGGGUGCCAA | 0.666
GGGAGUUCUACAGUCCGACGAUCCCUACCAAAUAAAUAAAUAGUUUAUAAAAUGUAUUACUUAAGGUAUUAGCUGAGUUUAGAGUACUUUCUGCUUAAUUAAUUUUUAUACUUAACUCUUCAGUAGAGGUUUAUGGAAUUCUCGGGUGCCAA | 0.744
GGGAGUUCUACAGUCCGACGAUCCAAGGUGAUAUAUAAUCAUAUCCAGUUUAAUCUUCACAAUAUCCAAUGAAGAAGGUCUCAUUAUCUCCAUGAUAAAGAUGGGGAAACUAAGGUCAGAAGGGUUAACUCAAUGGAAUUCUCGGGUGCCAA | 0.208
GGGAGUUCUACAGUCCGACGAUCACUUAAUUGAUUGGUUGUCCCAAGUGUUGCUCUUACUUGAUUUGCCAAAUGCCUCCUGCUUCUCGUUAUAGGACUGAGUGAGGUCCUCAUAGCUCUGUGCUCUGGGCAGCUGGAAUUCUCGGGUGCCAA | 0.264
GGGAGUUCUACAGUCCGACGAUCGUGUGUGUGGACUGGUUAUAGAUUUAUAACUAUGCAGGGUUAAUUAUCCAAUCUUUUUUUUUUGUAUUUAAAGAUCACAGGUAGAUAGAUGUAAGACAUUUGAUCCCCUGUGGAAUUCUCGGGUGCCAA | 0.9
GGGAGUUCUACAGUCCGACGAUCAAAUCACUGUAAUUAAAAUUGGUGUUAAAUCCUUUGGGUUUUCCACUGCCUUAAAAUGAUACUUAUUUCCUUAAAAAAGAAAAUAAAAUAAGAGAUAUCAGUCAGAAUUGUGGAAUUCUCGGGUGCCAA | 0.326

Series 3
Target: Fragile X messenger ribonucleoprotein 1, C-terminal low-complexity region (Fmr1, Mus musculus, UniProt P35922)
Method: RNA Bind-n-Seq
Form: RNA
Sample: in vitro
Concentration: 200 nM
Notes: whole 134-nt RNA, ends assumed
Together with: 150 mM LiCl
Baseline: input library
Direction: higher = stronger binding
All molecules: 7-deaza-guanosine replaces G
Sequence | log2 enrichment
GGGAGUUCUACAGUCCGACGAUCUGGGAGGUGGAUUUUGUUUAUUUUUUUAGCUCAUUUCCAGGGGUGGGAAUUUUUUUUUAAUAUGUGUCAUGAGUAAAGUUGUUUUUGAAAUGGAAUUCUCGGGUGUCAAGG | 0.866
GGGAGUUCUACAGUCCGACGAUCGCAGGAAGUAAAAACAAAUGGAAAUGCAAAGGAUAGUGGCAGGGGUGGGGGUUGCUAAGGAAAGGGUGGGAUGGGAGUGGGUAAAGAGUUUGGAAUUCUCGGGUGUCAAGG | 1.65
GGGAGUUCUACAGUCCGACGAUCUCCUGUGCUACACAUCGUAUGUACCGAAUCGGUUUUUUGGGGUUUUUUGGUUUUUUGGGGAAAGUAUUAUGUUACGCCGUUCGGAUCUGCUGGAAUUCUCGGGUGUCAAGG | -1.22
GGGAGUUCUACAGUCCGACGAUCUCCUCAAGUCCUGUGCUACACAUCGUAUGUACCGAAUCGGUGGUUUGGAGGAAAGUAUUAUGUUACGCCGUUCGGAUCUGCACUUCCAGCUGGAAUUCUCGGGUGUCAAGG | -0.36
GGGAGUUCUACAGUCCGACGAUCUUCAAAACAGAAUCCUUCCAGUCCUCUUCAGCGUUUAAUUCCAGGCUCAAACUUGGACAGUGAACCCAGAAUUCAAACAGAUAUACUAAAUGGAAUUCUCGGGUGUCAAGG | 1.49
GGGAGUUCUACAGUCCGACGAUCACCAUGCAGGUGGGCAUCUUUGGGAAGUGGGGCAAGGGGGGGAUACGGAGGGGGGUAACACUUUGGGAACAGGUGGUCCCAGGUCGUUUCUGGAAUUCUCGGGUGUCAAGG | 0.606
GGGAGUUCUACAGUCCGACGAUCGUCCUGUGCUACACAUCGUAUGUACCGAAUCGGCCCCCCGGGCCCCCCGGGCCCCCCGGAAAGUAUUAUGUUACGCCGUUCGGAUCUGCAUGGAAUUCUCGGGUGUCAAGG | 0.415
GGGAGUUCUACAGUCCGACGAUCCCCAGACAACACGCACCCACACAGACACAGAGGGAAGGGGUUGGGAUGGGGACAGGGUGCACAGCAGGGCGGGGUAGGACCCCAGCCCCUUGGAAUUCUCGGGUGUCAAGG | -1.54

Series 4
Target: CCNB1, cyclin fold, Cln2 fusion (human)
Method: yeast growth competition, sequencing
Sample: yeast
Notes: weak parent motif
Baseline: not given
Direction: higher = stronger binding
Starting sequence: DTL docking peptide (human); PSSMRKICTYFHR
Variant | normalised enrichment score
PSSMAKICTYFHR [R5A] | 0.17
PSSMRKIATYFHR [C8A] | -0.119
ASSMRKICTYFHR [P1A] | 0.108
PSSMRKICTYAHR [F11A] | 0.575
PASMRKICTYFHR [S2A] | -0.0352
PSSARKICTYFHR [M4A] | 0.12
